# Results from different studies.
SMILES,organism,assay,system,conditions,MIC
CC[C@H](C)[C@H](NC(=O)[C@H](CCCNC(=N)N)NC(=O)[C@H](Cc1c[nH]c2ccccc12)NC(=O)[C@H](CCCNC(=N)N)NC(=O)[C@H](Cc1c[nH]c2ccccc12)NC(=O)[C@H](Cc1c[nH]c2ccccc12)NC(=O)[C@H](Cc1c[nH]c2ccccc12)NC(=O)[C@H](CCCNC(=N)N)NC(=O)[C@H](Cc1c[nH]c2ccccc12)NC(=O)[C@@H](N)CCCNC(=N)N)C(N)=O,Candida albicans,broth microdilution,"CGMCC 2.209, RPMI 1640-MOPS","48 h, 30 °C, together with: FeCl3 4 µM",16 µM
CC(C)C1NC(=O)C(C(=O)NC(C(=O)NC2C(=O)N3C2SC(C)(C)C3C(=O)O)c2ccccc2)=C1O (stereo not shown),Escherichia coli,broth microdilution,"isolate IU, CTX-M-14, TEM-1",together with: clavulanic acid 6 µg/mL,200 µg/mL
C[C@H](NC(=O)[C@H](CCCNC(=N)N)NC(=O)[C@H](Cc1c[nH]c2ccccc12)NC(=O)[C@H](CCCNC(=N)N)NC(=O)[C@H](Cc1c[nH]c2ccccc12)NC(=O)[C@H](Cc1c[nH]c2ccccc12)NC(=O)[C@H](Cc1c[nH]c2ccccc12)NC(=O)[C@H](CCCNC(=N)N)NC(=O)[C@H](Cc1c[nH]c2ccccc12)NC(=O)[C@H](CCCNC(=N)N)NC(=O)CN)C(N)=O,Candida albicans,broth microdilution,"CGMCC 2.209, RPMI 1640-MOPS","48 h, 30 °C, together with: NaCl 150 mM",8 µM
CN[C@H](CC(C)C)C(=O)N[C@H]1C(=O)N[C@@H](CC(N)=O)C(=O)N[C@H]2C(=O)NC3C(=O)N[C@H](C(=O)N[C@H](C(=O)NCCC[N+](C)(C)C)c4cc(O)cc(O)c4-c4cc3ccc4O)[C@H](O)c3ccc(c(Cl)c3)Oc3cc2cc(c3OC2OC(CO)C(O)[C@H](O)[C@@H]2O[C@H]2CC(C)(NCc3ccc(-c4ccc(Cl)cc4)cc3)[C@H](O)[C@H](C)O2)Oc2ccc(cc2Cl)[C@H]1O (stereo partly shown),Enterococcus faecalis,,BM 4166 vanA,together with: 100 µg/mL NaH2PO4 plus LTA,1 µg/mL
CC(C)(C)Oc1ccc(CC2NC(=O)C(C(=O)NC(C(=O)NC3C(=O)N4C3SC(C)(C)C4C(=O)O)c3ccccc3)=C2O)cc1 (stereo not shown),Escherichia coli,broth microdilution,"isolate IU 356 A, KPC-3, VIM-1, TEM",no clavulanic acid,> 200 µg/mL
CC[C@H](C)[C@H](NC(=O)[C@H](Cc1c[nH]c2ccccc12)NC(=O)[C@@H](NC(=O)[C@@H](NC(=O)[C@@H](NC(=O)[C@H](CCCNC(=N)N)NC(=O)[C@@H](N)CCCNC(=N)N)[C@@H](C)CC)[C@@H](C)O)[C@@H](C)CC)C(=O)N[C@H](C(=O)N[C@H](C(=O)N[C@@H](CCCNC(=N)N)C(=O)N[C@@H](CCCNC(=N)N)C(N)=O)[C@@H](C)CC)[C@@H](C)O,Lactiplantibacillus plantarum,,"7469, probiotic strain","24 h, 37 °C, tested up to 128 µM",128 µM
CC(C)(C)OCC1NC(=O)C(C(=O)NC(C(=O)NC2C(=O)N3C2SC(C)(C)C3C(=O)O)c2ccccc2)=C1O (stereo not shown),Escherichia coli,broth microdilution,Keio mutant JW0587-1,"18 h, enterobactin-related gene",25 µg/mL
CC(C)[C@H](NC(=O)[C@H](CCCNC(=N)N)NC(=O)[C@H](Cc1c[nH]c2ccccc12)NC(=O)[C@H](CCCNC(=N)N)NC(=O)[C@H](Cc1c[nH]c2ccccc12)NC(=O)[C@H](Cc1c[nH]c2ccccc12)NC(=O)[C@H](Cc1c[nH]c2ccccc12)NC(=O)[C@H](CCCNC(=N)N)NC(=O)[C@H](Cc1c[nH]c2ccccc12)NC(=O)[C@H](CCCNC(=N)N)NC(=O)CN)C(N)=O,Candida albicans,broth microdilution,"CGMCC 2.209, RPMI 1640-MOPS","48 h, 30 °C, together with: KCl 4.5 mM",8 µM
CC1(C)SC2C(NC(=O)C(NC(=O)C3=C(O)CN(c4ccccc4)C3=O)c3ccccc3)C(=O)N2C1C(=O)O (stereo not shown),Escherichia coli,broth microdilution,JW0790-2 fiu deletion mutant,ferric iron uptake gene,100 µg/mL
CC(C)C[C@@H]1NC(=O)[C@@H](Cc2ccccc2)NC(=O)[C@H](CCN)NC(=O)[C@@H](NC(=O)[C@H](CCN)NC(=O)[C@@H](N)[C@@H](C)O)CCNC(=O)[C@H]([C@@H](C)O)NC(=O)[C@H](CCN)NC(=O)[C@H](CCN)NC1=O,Escherichia coli,checkerboard,mcr-1,"concentration not given, together with: rifampicin",0.75 µg/mL
N=C(N)NCCC[C@H](NC(=O)CN)C(=O)N[C@@H](Cc1c[nH]c2ccccc12)C(=O)N[C@@H](CCCNC(=N)N)C(=O)N[C@@H](Cc1c[nH]c2ccccc12)C(=O)N[C@@H](Cc1c[nH]c2ccccc12)C(=O)N[C@@H](Cc1c[nH]c2ccccc12)C(=O)N[C@@H](CCCNC(=N)N)C(=O)N[C@@H](Cc1c[nH]c2ccccc12)C(=O)N[C@@H](CCCNC(=N)N)C(=O)N[C@@H](Cc1c[nH]c2ccccc12)C(N)=O,Candida albicans,broth microdilution,"CGMCC 2.209, RPMI 1640-MOPS","48 h, 30 °C, together with: FeCl3 4 µM",4 µM
CC(C)C[C@@H]1NC(=O)[C@H](Cc2ccccc2)NC(=O)[C@H](Cc2ccc(O)cc2)NC(=O)[C@H](CC(C)C)NC(=O)[C@H](CCC(=O)O)NC(=O)[C@H](Cc2ccccc2)NC(=O)[C@H](CCCNC(=N)N)NC(=O)[C@H](CCC(N)=O)NC(=O)[C@H](CC(C)C)NC(=O)[C@H](CC(=O)O)NC(=O)[C@@H]2CCCN2C(=O)[C@H](CCCCN)NC(=O)[C@H](C(C)C)NC(=O)[C@H](CC(N)=O)NC(=O)[C@H](Cc2ccc(O)cc2)NC(=O)[C@H]([C@@H](C)O)NC(=O)[C@@H](N)CSSC[C@@H](C(=O)O)NC(=O)[C@H]([C@@H](C)O)NC(=O)[C@H](C(C)C)NC(=O)[C@H]([C@@H](C)O)NC(=O)CNC1=O,Corynebacterium glutamicum,broth dilution,CGMCC strain,24 h,> 40 µM
CC[C@H](C)[C@H](NC(=O)[C@H](CCCNC(=N)N)NC(=O)[C@H](Cc1c[nH]c2ccccc12)NC(=O)[C@H](CCCNC(=N)N)NC(=O)[C@H](Cc1c[nH]c2ccccc12)NC(=O)[C@H](Cc1c[nH]c2ccccc12)NC(=O)[C@H](Cc1c[nH]c2ccccc12)NC(=O)[C@H](CCCNC(=N)N)NC(=O)[C@H](Cc1c[nH]c2ccccc12)NC(=O)[C@H](CCCNC(=N)N)NC(=O)CN)C(N)=O,Candida albicans,broth microdilution,"CGMCC 2.209, RPMI 1640-MOPS","48 h, 30 °C, together with: MgCl2 1 mM",8 µM
CC[C@H](C)[C@H](NC(=O)[C@H](CCCCN)NC(=O)[C@H](CCCCN)NC(=O)[C@H](Cc1ccccc1)NC(=O)[C@@H](NC(=O)[C@@H](NC(=O)[C@H](CCCNC(=N)N)NC(=O)[C@H](Cc1ccccc1)NC(=O)[C@@H](NC(=O)[C@H](CCCCN)NC(=O)[C@H](CCCCN)NC(=O)[C@@H](N)CCSC)[C@@H](C)CC)C(C)C)[C@@H](C)CC)C(=O)N[C@@H](CC(C)C)C(=O)N[C@@H](CCCCN)C(=O)N[C@@H](CCCNC(=N)N)C(=O)N[C@@H](CC(C)C)C(=O)N[C@H](C(=O)N[C@H](C(=O)O)C(C)C)[C@@H](C)CC,Staphylococcus aureus,broth microdilution,ATCC 25923,20% fetal bovine serum,8 µg/mL
N=C(N)NCCC[C@H](NC(=O)CN)C(=O)N[C@@H](Cc1c[nH]c2ccccc12)C(=O)N[C@@H](CCCNC(=N)N)C(=O)N[C@@H](Cc1c[nH]c2ccccc12)C(=O)N[C@@H](Cc1c[nH]c2ccccc12)C(=O)N[C@@H](Cc1c[nH]c2ccccc12)C(=O)N[C@@H](CCCNC(=N)N)C(=O)N[C@@H](Cc1c[nH]c2ccccc12)C(=O)N[C@@H](CCCNC(=N)N)C(=O)N[C@@H](Cc1ccccc1)C(N)=O,Candida albicans,broth microdilution,"CGMCC 2.209, RPMI 1640-MOPS","48 h, 30 °C, together with: KCl 4.5 mM",8 µM
CC[C@H](C)[C@H](NC(=O)[C@H](CC(C)C)NC(=O)[C@H](CC(C)C)NC(=O)[C@H](Cc1c[nH]cn1)NC(=O)[C@H](CCCCN)NC(=O)[C@H](Cc1c[nH]cn1)NC(=O)[C@H](CCCNC(=N)N)NC(=O)[C@@H]1CCCN1C(=O)[C@H](Cc1ccc(O)cc1)NC(=O)[C@H](CC(C)C)NC(=O)[C@H](CCC(N)=O)NC(=O)[C@@H](N)CO)C(=O)N[C@@H](CCCCN)C(=O)N[C@@H](CCCNC(=N)N)C(=O)N[C@@H](CO)C(=O)N[C@@H](CC(C)C)C(=O)N[C@@H](CCCNC(=N)N)C(=O)N[C@@H](CS)C(=O)N[C@@H](CCCNC(=N)N)C(=O)N[C@@H](CCCCN)C(=O)N[C@@H](CS)C(=O)O,Staphylococcus haemolyticus,,,,50 µg/mL
CC[C@H](C)[C@H](NC(=O)[C@H](CCCCN)NC(=O)[C@@H](NC(=O)[C@H](Cc1ccc(O)cc1)NC(=O)[C@H](CCCCN)NC(=O)[C@H](CCCCN)NC(=O)CNC(=O)[C@H](CCCCN)NC(=O)[C@@H](NC(=O)[C@H](C)NC(=O)[C@H](CC(C)C)NC(=O)[C@H](Cc1c[nH]c2ccccc12)NC(=O)CNC(=O)[C@@H](NC(=O)[C@H](Cc1ccccc1)NC(=O)[C@H](CCCCN)NC(=O)[C@H](CC(C)C)NC(=O)[C@H](Cc1ccccc1)NC(=O)[C@H](C)NC(=O)CNC(=O)[C@@H](N)CCSC)C(C)C)[C@@H](C)O)C(C)C)C(=O)N[C@@H](C)C(=O)N[C@@H](Cc1c[nH]c2ccccc12)C(=O)N[C@@H](CC(=O)O)C(=O)N[C@@H](Cc1c[nH]cn1)C(=O)N[C@@H](CCCCN)C(=O)NCC(=O)N[C@H](C(=O)N[C@H](C(=O)N[C@@H](CCSC)C(=O)N[C@@H](CCCCN)C(=O)N[C@@H](Cc1c[nH]c2ccccc12)C(=O)N[C@@H](CC(C)C)C(=O)N[C@@H](CC(N)=O)C(=O)N[C@@H](C)C(=O)NCC(=O)N[C@@H](CCC(N)=O)C(=O)N[C@H](C(=O)N[C@@H](Cc1ccccc1)C(=O)N[C@H](C(=O)N[C@@H](Cc1c[nH]c2ccccc12)C(=O)N[C@H](C(=O)N[C@@H](Cc1ccc(O)cc1)C(=O)N[C@@H](CCC(=O)O)C(=O)N[C@@H](CCC(N)=O)C(=O)N[C@H](C(=O)N[C@@H](CCCCN)C(=O)N[C@@H](CCCCN)C(=O)N[C@@H](CC(C)C)C(=O)N[C@@H](Cc1c[nH]c2ccccc12)C(=O)N[C@H](C(=O)O)[C@@H](C)O)[C@@H](C)CC)C(C)C)[C@@H](C)O)[C@@H](C)O)[C@@H](C)CC)[C@@H](C)O,Pediococcus damnosus,,CECT 4797,"32 °C, non-formylated synthetic",0.5 µg/mL
N=C(N)NCCC[C@H](NC(=O)[C@H](Cc1c[nH]c2ccccc12)NC(=O)[C@H](CCCNC(=N)N)NC(=O)[C@H](Cc1c[nH]c2ccccc12)NC(=O)[C@H](Cc1c[nH]c2ccccc12)NC(=O)[C@H](Cc1c[nH]c2ccccc12)NC(=O)[C@H](CCCNC(=N)N)NC(=O)[C@H](Cc1c[nH]c2ccccc12)NC(=O)[C@@H](N)CCCNC(=N)N)C(=O)N[C@@H](Cc1c[nH]c2ccccc12)C(N)=O,Candida albicans,broth microdilution,"CGMCC 2.209, RPMI 1640-MOPS","48 h, 30 °C, together with: KCl 4.5 mM",8 µM
CCN1CCN(C(=O)N[C@@H](C(=O)N[C@@H]2C(=O)N3[C@@H]2SC(C)(C)[C@@H]3C(=O)O)c2ccccc2)C(=O)C1=O,Escherichia coli,broth microdilution,"isolate IU 356 A, KPC-3, VIM-1, TEM",no clavulanic acid,> 200 µg/mL
CN[C@H](CC(C)C)C(=O)N[C@H]1C(=O)N[C@@H](CC(N)=O)C(=O)N[C@H]2C(=O)N[C@H]3C(=O)N[C@H](C(=O)N[C@H](C(=O)O)c4cc(O)cc(O)c4-c4cc3ccc4O)[C@H](O)c3ccc(c(Cl)c3)Oc3cc2cc(c3O[C@@H]2O[C@H](CO)[C@@H](O)[C@H](O)[C@H]2O[C@H]2C[C@](C)(N)[C@H](O)[C@H](C)O2)Oc2ccc(cc2Cl)[C@H]1O,Enterococcus,,VRE 700221,16 h,> 100 µM
CN1CC(O)=C(C(=O)NC(C(=O)NC2C(=O)N3C2SC(C)(C)C3C(=O)O)c2ccccc2)C1=O (stereo not shown),Escherichia coli,broth microdilution,"isolate IU 356 A, KPC-3, VIM-1, TEM",together with: clavulanic acid 6 µg/mL,> 200 µg/mL
Cc1ncc([N+](=O)[O-])n1CCO,Bacteroides spp. and Parabacteroides distasonis,,,,0.25 to 1 µg/mL

# For quick reference, copied from above:
SMILES,organism,assay,system,conditions,MIC
CN[C@H](CC(C)C)C(=O)N[C@H]1C(=O)N[C@@H](CC(N)=O)C(=O)N[C@H]2C(=O)N[C@H]3C(=O)N[C@H](C(=O)N[C@H](C(=O)O)c4cc(O)cc(O)c4-c4cc3ccc4O)[C@H](O)c3ccc(c(Cl)c3)Oc3cc2cc(c3O[C@@H]2O[C@H](CO)[C@@H](O)[C@H](O)[C@H]2O[C@H]2C[C@](C)(N)[C@H](O)[C@H](C)O2)Oc2ccc(cc2Cl)[C@H]1O,Enterococcus,,VRE 700221,16 h,> 100 µM
CN1CC(O)=C(C(=O)NC(C(=O)NC2C(=O)N3C2SC(C)(C)C3C(=O)O)c2ccccc2)C1=O (stereo not shown),Escherichia coli,broth microdilution,"isolate IU 356 A, KPC-3, VIM-1, TEM",together with: clavulanic acid 6 µg/mL,> 200 µg/mL
